# Measured values pooled from the literature.
# Numbered parts are unrelated; each lists some results of a single study.

# Set 1
# Target: Centromere-binding protein 1, full length, His-tagged (CBF1, Saccharomyces cerevisiae, UniProt P17106, residues 1-351)
# UniProt P17106, sequence (whole entry, looked up): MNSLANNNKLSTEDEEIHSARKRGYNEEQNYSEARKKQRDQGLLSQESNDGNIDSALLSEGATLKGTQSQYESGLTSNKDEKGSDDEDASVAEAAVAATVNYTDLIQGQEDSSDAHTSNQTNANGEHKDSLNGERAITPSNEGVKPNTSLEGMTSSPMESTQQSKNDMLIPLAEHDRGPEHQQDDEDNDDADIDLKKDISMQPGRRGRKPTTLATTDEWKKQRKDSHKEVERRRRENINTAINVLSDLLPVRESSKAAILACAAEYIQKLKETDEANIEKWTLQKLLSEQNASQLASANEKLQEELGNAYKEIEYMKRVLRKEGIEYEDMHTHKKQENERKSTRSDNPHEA
# Method: competition protein-binding microarray
# Form: double-stranded DNA, one strand shown
# Matrix: in vitro
# Tested at: 2 µM
# Setting: whole 60-bp probe, lowest competitor level
# Added: Pho4 competitor, 0.05 µM
# Reading: higher = stronger binding
# Constant ends, left off below: … GTCTTGATTCGCTTGACGCTGCTG
Strand,fluorescence intensity
ACAAGTTTTACTCGGCACGTCAATTCGATGAAGCTA,88.8 a.u.
ATCTGTGCCAACAAGTACATGACAACTGTCTCCGGT,81.5 a.u.
AATTGGCTTGAAGGAAACGTGAGAACCATTAACACA,132 a.u.
CGGGGTTAAGTTTGCACGGTGGGTGGCTTGCAGCAG,70.2 a.u.
CTAACGAAGGTTTGTCACCCCACTTACAAGCCAAGT,74.6 a.u.
CATTCGTTGGTTTATTATGTGACGGTTTTTAGACTT,92.9 a.u.
TTGGTACTGGTATTGCACGTGGAAGTGGCGGAGCAG,699 a.u.
TAGCTAGGGAGCCCTTGCATGACAATTCTGCTAACA,56.6 a.u.
TTCTCGGACTTAAAGCATGTGCTCACCATACTACCA,187 a.u.
GTATGCACTTGAAACAACGTGTAGACCATCAAGTTG,117 a.u.
CTTCTGTAAATTTGTGGAGTGGGTGGACGCGCCCCG,82.5 a.u.
ACATATATTAAGTTCCACGTGATGGAGGGAATAGTC,3420 a.u.
GTAGCTCTGTCAAACCCCGTGGAACCGCAAACTCAT,102 a.u.
AAATTACTAAGTTGTTGCGTGGGTGACGCCGTATGA,77.5 a.u.
AAGTTATTGGTGTTCGTCGTGCCGATTGGAGAATTG,80.9 a.u.
TCTCGACCCGGGTGGCTCGTGCGATCTCCGGAAAAA,72 a.u.
GAGTGCTCAGAAAACCCCGTGGATTACCCAACGGTC,71.7 a.u.
TGCGCAACAACTTGCTACGTGGGTGTATGTCTAGAA,71.5 a.u.
CTAACGAAGGTTTGGGTGGTGGGTGACAAGCCAAGT,68 a.u.

# Set 2
# Target: Histone acetyltransferase KAT6A, both winged helices, GST fusion (KAT6A, Homo sapiens, UniProt Q92794, residues 1-181)
# Method: protein binding microarray
# Form: double-stranded DNA, one strand shown
# Matrix: in vitro
# Tested at: not given
# Setting: 8-mer, flanks averaged, mean of 2 arrays, mostly near background
# Baseline: not given
# Reading: higher = stronger binding
# Target sequence (chain): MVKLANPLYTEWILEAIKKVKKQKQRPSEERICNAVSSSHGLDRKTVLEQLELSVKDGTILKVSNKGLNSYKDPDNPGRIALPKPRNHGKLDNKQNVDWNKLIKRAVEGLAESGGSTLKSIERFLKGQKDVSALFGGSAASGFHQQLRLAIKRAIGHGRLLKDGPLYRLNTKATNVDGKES
Strand,E-score
ACACGATC,-0.0126
ACGAGGCG,0.0839
CCCTTAGA,-0.306
GATTACAA,-0.00431
AATTGTGT,-0.0771
CATTTATA,-0.108
GGTACACA,0.12
GCCGCTGA,0.248
CTGCAACA,0.0868
CCCTACTA,-0.0043
GCGCGTGA,0.323
CCACCACC,-0.177
TAATGAAA,-0.148
AATGTGGC,-0.0301
ATATTAAT,0.0664
CCTGAGGA,-0.236
AGGCGGAA,0.168
GCTTTTAC,0.144
ACCACACG,-0.0252
CGTAACCA,0.0327

# Set 3
# Target: RNA binding protein fox-1 homolog 2, RRM domain, GST-SBP tag (RBFOX2, Homo sapiens, UniProt O43251-10, residues 100-194)
# Method: RNA Bind-n-Seq
# Form: RNA
# Matrix: in vitro
# Tested at: 365 nM
# Setting: natural RNA segment, single round, ends assumed
# Baseline: no-protein control
# Reading: higher = stronger binding
# Constant ends, left off below: GGGAGUUCUACAGUCCGACGAUC … UGGAAUUCUCGGGUGCCAA
# Residues (chain): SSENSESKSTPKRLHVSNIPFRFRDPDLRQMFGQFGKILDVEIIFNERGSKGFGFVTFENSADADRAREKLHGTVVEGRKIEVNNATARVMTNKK
Strand,RBNS enrichment (R)
UCAUUUGUCCUUUGUCUAGGAGAGGACAGGACUCUCUUUUUCCUCUUCCUGGUAGUUGUAAUGACCACUCCCAUAAGGGCUAUAACUGUUCUUCACAGGUGGCCCUGCUC,0.365
AAAAGGUGAGGUGGCAACCUGAUUUCUAAUGGCUUAAAAUGUUGAUGAUGAUCCUAAUUACAUAAACACACACAUAUAUCUAGUGAUUUCUAAGGAUUUGUUUACUUUUU,0.684
AAGGAAUUUUUCCCUCCAAAGGCCCCCUGAAGUCCUAGUUGGCAUUGGCCUGGCACAUGCUUUAUGUUAGGCCUCCCGUUGGGAUGGCUGAGAAUCAUGAAAGACAGAUC,0.327
ACUGCUGGCCAGAGGACUUUAGCCUACCCCUGAAGAGCCUGUCCAUGUCAUUUUCCUACUGCCAUAGAUACCCUAAGCCCAGGGCCCCUUGAGGCCCAGACUCAGCCUGC,0.246
UUCAAAGUGCCAAUGAUAGAGUCAACAGGAAGGUUAAUGUUGGAAACACAAUCAGGUGUGGAUUGGUGCUACUUUGAACAAAAGGUCCCCCUGUGGUCUUUUGUUCAACA,0.469
UGAGGGCUGCCUCUGUGCCAGGAUGCCAAGGACCGCUGCACAUUUCCAAAUUCACAGCAGUGGAUCCCAUGCCACUUUGCUGUCCUGAGCACCCCAGACUUGACUGUGUA,11.5
AUACCACAUACGCUGCACUGUUCUUAGAGGGUUUCCAUACUUACCACCGAUCUACAAGGGUUGAUCCCUGUUUUUACCAUCAAUCAUCACCCUGUGGUGCAACACUUGAA,0.412
GUACAAUAUCUAAAAAGAAAGUGACAUGAAGGAAGCAAUCUACAACUUCCUUCCGCUUAGCGAGCAUGCAUGUGUGUACGUGCACGUGUGUACAUGUCUGCAUGUGUGGG,5.09

# Set 4
# Target: Hepatocyte nuclear factor 3-beta, forkhead domain (FOXA2, Homo sapiens, UniProt Q9Y261, residues 142-269)
# Method: protein-binding microarray
# Form: double-stranded DNA, one strand shown
# Matrix: in vitro
# Tested at: not given
# Setting: k-mer, scored over probes, only values ≥0.25
# Reading: higher = stronger binding
# Construct (chain): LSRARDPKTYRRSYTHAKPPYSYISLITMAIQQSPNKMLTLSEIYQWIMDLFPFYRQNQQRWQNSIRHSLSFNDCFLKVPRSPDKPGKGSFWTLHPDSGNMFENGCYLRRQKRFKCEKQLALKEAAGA
Strand,E-score
ACTATAAT,0.292
TACTTCAA,0.269
GATTAATA,0.282
AATTGATG,0.267
ATTGGTTA,0.293
CTTATCCA,0.258
ATGATATA,0.375
ATATATCC,0.368
ATTAAACA,0.301
ATTAACAA,0.305
AGATACCA,0.299
ACAGTATC,0.256
ATAAGAAC,0.279
TAATATGA,0.372
GTAGACAA,0.3
CAAACAAC,0.324
AGATAATG,0.284
ATGGTAAC,0.258
AATATCAT,0.279
AACGGATA,0.258
GTTATAAA,0.273
GTTAGATA,0.318
ATCAACAA,0.353
AACATTAT,0.351
TAACAACA,0.319

# A few entries again (set 2):
Strand,E-score
GCTTTTAC,0.144
CTGCAACA,0.0868
CCACCACC,-0.177
CGTAACCA,0.0327
CCCTACTA,-0.0043
ACCACACG,-0.0252
ACACGATC,-0.0126
